Results of several laboratories.
A part holds a random share of what one study measured. Positions count from the first letter of the parent shown.
Sequence of UniProt Q9Y2X8 (whole entry, looked up): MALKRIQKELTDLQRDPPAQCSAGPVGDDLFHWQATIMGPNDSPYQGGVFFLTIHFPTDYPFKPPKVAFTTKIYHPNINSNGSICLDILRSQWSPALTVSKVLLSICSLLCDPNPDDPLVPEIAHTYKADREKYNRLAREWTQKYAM

Sample 1 — technique: RNA Bind-n-Seq; molecule type: RNA; medium: in vitro; tested at: 200 nM; notes: whole 134-nt RNA, ends assumed; added: 150 mM LiCl; reference: input library; reading: higher = stronger binding; each molecule: 7-deaza-guanosine replaces G
Target: Ras GTPase-activating protein-binding protein 1, full length (G3BP1, Homo sapiens, UniProt Q13283)
Sequence of UniProt Q13283 (whole entry, looked up): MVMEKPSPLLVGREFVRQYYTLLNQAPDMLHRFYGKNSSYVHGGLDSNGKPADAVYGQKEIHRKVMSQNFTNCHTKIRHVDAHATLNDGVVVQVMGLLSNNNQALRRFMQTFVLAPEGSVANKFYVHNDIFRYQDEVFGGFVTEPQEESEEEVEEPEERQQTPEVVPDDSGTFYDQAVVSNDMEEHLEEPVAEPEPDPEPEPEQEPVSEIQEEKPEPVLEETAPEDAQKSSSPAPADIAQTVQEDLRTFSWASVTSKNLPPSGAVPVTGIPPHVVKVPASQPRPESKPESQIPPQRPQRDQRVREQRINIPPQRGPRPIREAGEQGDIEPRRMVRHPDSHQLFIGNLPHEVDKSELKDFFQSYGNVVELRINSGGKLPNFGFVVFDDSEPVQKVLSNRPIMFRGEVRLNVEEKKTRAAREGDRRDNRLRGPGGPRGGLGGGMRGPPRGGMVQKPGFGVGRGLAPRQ
| Oligonucleotide | log2 enrichment |
| --- | --- |
| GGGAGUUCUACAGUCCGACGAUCAAGUCCUGUGCUACACAUCGUAUGUACCGAAUCAAAUUUAAACCCCCAAACCCAAAAAAGUAUUAUGUUACGCCGUUCGGAUCUGCACUUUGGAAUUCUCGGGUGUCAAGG | 1.31 |
| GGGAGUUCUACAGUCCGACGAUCACCAUGAAAGUGGGCAUCUUUGGGAAGUGGGGCAAGGGGGGGAUAGGGAGGGGGGUAACACUUUGGGAACAGGUGGUCCCAGGUCGUUUCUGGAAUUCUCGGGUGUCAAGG | 0.32 |
| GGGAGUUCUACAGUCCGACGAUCCUGUGCUACACAUCGUAUGUACCGAAUCGGCCCCCCCGGGGCCCCCCCGGCCCCCCCGGGGAAAGUAUUAUGUUACGCCGUUCGGAUCUGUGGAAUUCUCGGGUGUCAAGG | -0.225 |
| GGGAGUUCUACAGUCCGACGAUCACUGAGGUACUGCCCUCCCCUGCCCCCUACCCUCUCCCUUGUCCCUCUACCCCGUUCCUCCCCUUCCCUCCAUUCCCUUUCCCCAACCUGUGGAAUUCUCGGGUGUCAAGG | -0.615 |
| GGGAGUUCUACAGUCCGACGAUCGUCCUGUGCUACACAUCGUAUGUACCGAAUCGGGUUUUUGGGGUUUUUGGUUUUUGGGAAAGUAUUAUGUUACGCCGUUCGGAUCUGCACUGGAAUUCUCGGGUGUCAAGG | -0.747 |
| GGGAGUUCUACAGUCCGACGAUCACCAUGCAGGUGGGCAUCUUUGGGAAGUGGGGCAAGGGGGGGAUAGGGAGGGGGGUAACACUUUGGGAGCAGGUGGUCCCAGGUCGUUUCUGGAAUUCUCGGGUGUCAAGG | 0.0812 |
| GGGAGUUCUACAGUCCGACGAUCUCAAGUCCUGUGCUACACAUCGUAUGUACCGAAUCGGGGUGGGGAGGGGAGGGGAAAGUAUUAUGUUACGCCGUUCGGAUCUGCACUUCCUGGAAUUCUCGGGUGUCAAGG | 0.0847 |
| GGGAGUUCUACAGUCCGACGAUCACCAUGCAGGUGGGCAUCUUUGGGAAGUGGGGCAAGGGGGGGAUAGGGAGGGGGGUAACACUUUGGGAACAAAUGGUCCCAGGUCGUUUCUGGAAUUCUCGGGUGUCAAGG | 0.333 |

Sample 2 — observed: peptide-MHC binding; molecule type: peptide; tested at: concentration not given
Target: HLA class I histocompatibility antigen, A alpha chain, allele A*25:01 (Homo sapiens, UniProt P04439)
| Molecule | binding |
| --- | --- |
| RVLTARKTV | inactive |
| MAVTAAPYI | inactive |
| DEWECTRDD | inactive |
| YSSHELWHF | inactive |

Sample 3 — target: CCND1, cyclin fold, Cln2 fusion (human); technique: yeast growth competition, sequencing; medium: yeast; notes: strong parent motif; reference: not given; reading: higher = stronger binding
Parent: viral docking peptide; YKVKRRLVFGADD; partner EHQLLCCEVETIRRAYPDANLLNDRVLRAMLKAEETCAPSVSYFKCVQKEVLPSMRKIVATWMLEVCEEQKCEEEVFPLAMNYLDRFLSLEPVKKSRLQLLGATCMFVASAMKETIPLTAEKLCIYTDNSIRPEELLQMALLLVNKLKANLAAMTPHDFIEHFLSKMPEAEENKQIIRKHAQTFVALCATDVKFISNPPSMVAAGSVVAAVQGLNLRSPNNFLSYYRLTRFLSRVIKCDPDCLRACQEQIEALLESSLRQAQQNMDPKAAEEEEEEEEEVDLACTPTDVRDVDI
| Substitution | normalised enrichment score |
| --- | --- |
| G10D | 4.45 |
| A11H | 2.16 |
| F9P | -0.105 |
| K2A | 1.6 |
| R5T | 0.207 |
| K2Q | 2.49 |
| D13A | 0.551 |
| R5V | 0.875 |
| F9Q | 0.192 |
| R5D | 0.3 |
| V8N | 2.17 |
| V3D | 0.0989 |
| R5N | -0.152 |

Other studies, line by line
| Molecule | target | test | system | conditions | scale | measurement | result |
| --- | --- | --- | --- | --- | --- | --- | --- |
| KITELNPHLMCVLCGGYFIDATTIIECLHSFCKTCIVRYLETSKYCPICDVQVHKTRPLL (BMI1 RING domain (UniProt P35226)) | UBE2D4 UBC core domain (UniProt Q9Y2X8) | yeast two-hybrid | yeast | mostly zero background | reference: not given, higher = stronger interaction | lacZ reporter activity | 0 |

A few entries again (sample 1):
| Oligonucleotide | log2 enrichment |
| --- | --- |
| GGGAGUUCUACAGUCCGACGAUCUCAAGUCCUGUGCUACACAUCGUAUGUACCGAAUCGGGGUGGGGAGGGGAGGGGAAAGUAUUAUGUUACGCCGUUCGGAUCUGCACUUCCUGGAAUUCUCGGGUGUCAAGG | 0.0847 |
